Assay results of several laboratories.
Compare with care: the assays were run in different laboratories.
Cell line: HepG2

| SMILES | test | conditions | scale | measurement | value |
| --- | --- | --- | --- | --- | --- |
| CC(=O)O[C@@H]1CC[C@@]2(C)C(CC[C@]3(C)C2C(=O)C=C2C4[C@@H](C)[C@H](C)CC[C@]4(C)CC[C@]23C)[C@@]1(C)C(=O)OCC(=O)Oc1cc(C)ccc1C(C)C (stereo partly shown) | item: superoxide dismutase | 10 µM, together with: acetaminophen 10 mM |  | SOD activity | 73 U/mg |
| Cc1ccc(NC(=O)c2cccc(C(F)(F)F)c2)cc1N1Cc2cnc(N)nc2N(C)C1=O | cell growth or viability, ATP luminescence | 72 h |  | GI50 | 2690 nM |
| Cc1ccc2nc(-c3ccccc3)c(CN3CCN(c4ccccc4)CC3)n2c1 | cell growth or viability | 48 h |  | EC50 | > 50 µM |
| O=C(O)CCNC(=O)[C@H](Cc1c[nH]cn1)NC(=O)[C@H](Cc1c[nH]cn1)NC(=O)CCNC(=O)[C@@H]1CCCN1 | MTT | 10 µg/mL, 6 h |  | viability | 18.3% |
| Cc1cc2nc(-c3cc4ccccc4nc3Cl)[nH]c2cc1C | flow cytometry | 8 µM, 48 h |  | cells in G2 phase | 40.6% |
| CCOC(=O)c1c(-c2ccc(C)cc2)oc2ncccc12 | cell growth or viability | 48 h |  | EC50 | > 50 µM |
| CCC12C=C(C(=O)OC)n3c(c(c4ccccc43)CCN(C=CC(=O)OC)CCC1)C2c1ccc(O)cc1 (stereo not shown) | cytotoxicity |  |  | EC50 | > 40 µM |
| Cc1ccc(-c2cn3cc(C)ccc3n2)cc1 | cell growth or viability | 48 h |  | EC50 | > 50 µM |
| O=C(CNc1ccc(Cl)c(S(=O)(=O)N2CCOCC2)c1)Nc1ccc(F)c(Cl)c1 | cell growth or viability |  |  | EC50 | 25.7 µM |
| CC(=O)O[C@H]1CC[C@]2(C)[C@H]3C(=O)C=C4[C@@H]5C[C@@](C)(C(=O)OCc6ccccc6)CC[C@]5(C)CC[C@@]4(C)[C@]3(C)CC[C@H]2C1(C)C | annexin V/7-AAD flow cytometry | 4 µM, 48 h |  | apoptotic cells | 15.7% |
| CCN(CC)S(=O)(=O)c1cc(NCC(=O)Nc2ccc(F)c(Cl)c2)ccc1C | cell growth or viability |  |  | EC50 | > 25 µM |
| COc1cc(COC(=O)C2C(C=O)=Cc3cc4c(cc3C2c2cc(OC)c(OC)c(OC)c2)OCO4)cc(OC)c1OC (stereo not shown) |  |  | relative to: CC50 HepG2 over amastigote EC50 | selectivity index | 8.8 |
| CC(=O)O[C@@H]1CC[C@@]2(C)C(CC[C@]3(C)C2C(=O)C=C2C4[C@@H](C)[C@H](C)CC[C@]4(C)CC[C@]23C)[C@@]1(C)C(=O)N/N=C1/C(=O)Nc2ccccc21 (stereo partly shown) | ELISA | 1 µM, together with: APAP 10 mM | relative to: APAP alone | IL-6 reduction | ~48% |
| O=C1/C(=C/c2ccc3c(c2)OCCO3)SC(=S)N1[C@@H]1O[C@H](CO)[C@@H](O)[C@H](O)[C@H]1O | annexin V/PI | IC50, 48 h |  | late apoptotic cells | 15.5% |
| CCOC(=O)c1c(-c2ccc(C)cc2)oc2nc(N3CC[C@H](F)C3)ccc12 | cell growth or viability | 48 h |  | EC50 | > 50 µM |
| CN(C(=NN=C(c1ccccc1)c1ccccn1)[S][Ga]([Cl])[Cl])C1CCCCC1 | western blot, item: ferritin | 5 µM, 24 h | relative to: control | protein level | 0.61 fold |
| Cc1ccc2nc(-c3ccccc3)c(CN3CC[C@H](F)C3)n2c1 | cell growth or viability | 48 h |  | EC50 | > 50 µM |
| Cc1ccc(NCC(=O)Nc2ccc(F)c(Cl)c2)cc1S(=O)(=O)N1CC2CC1CO2 (stereo not shown) | cell growth or viability |  |  | EC50 | > 25 µM |
| Cc1ccc(Nc2ncc3c(n2)N(C)C(=O)N(c2cc(NC(=O)c4ccccc4)ccc2C)C3)cn1 | cell growth or viability, ATP luminescence | 72 h |  | GI50 | 6690 nM |

| SMILES | test | conditions | scale | measurement | value |
| --- | --- | --- | --- | --- | --- |
| O=C(/C=C/c1ccc(O)c(O)c1)OCCCC[P+](c1ccccc1)(c1ccccc1)c1ccccc1 | SRB | 48 h | relative to: IC50 L02 over IC50 HepG2 | therapeutic index | 11.2 |
| Cc1ccc(NCC(=O)N2CCNCC2)cc1S(=O)(=O)N1CCOCC1 | cell growth or viability |  |  | EC50 | > 25 µM |
| O=C(/C=C/c1ccccc1)OCCCC[P+](c1ccccc1)(c1ccccc1)c1ccccc1 | SRB | 24 h | relative to: IC50 L02 over IC50 HepG2 | therapeutic index | 9.4 |
| Cc1ccc2nc(-c3ccc(F)c(F)c3)c(CN3CCN(c4ccc(F)cc4)CC3)n2c1 | cell growth or viability | 48 h |  | EC50 | > 50 µM |
| CSC(=S)N/N=C(\C)c1ccc(S(=O)(=O)N2CCC(C)CC2)cc1 | flow cytometry | 3.31 µM (IC50), 72 h |  | cells in pre-G1 phase | 11.8% |
| Cc1ccc(Nc2ncc3c(n2)N(C2CC2)C(=O)N(c2cc(NC(=O)c4cccc(C(F)(F)F)c4)ccc2C)C3)cn1 | cell growth or viability, ATP luminescence | 72 h |  | GI50 | 878 nM |
| CC(=NN=c1sc(C(=O)c2ccccc2)nn1-c1ccccc1)c1ccc(S(=O)(=O)N2CCC(C)CC2)cc1 | flow cytometry | 3.31 µM (IC50), 72 h |  | cells in pre-G1 phase | 22.8% |
| NCCC(=O)N[C@@H](Cc1c[nH]cn1)C(=O)N1CCC[C@H]1C(=O)N[C@@H](Cc1c[nH]cn1)C(=O)NCCC(=O)O | LDH | 10 µg/mL, 6 h, 1% FBS |  | viability | 84.4% |
| C=C1C(=O)C23CCC4C(C)(C)CCCC4(C)C2C(O)CC1C3 (single isomer, unassigned) |  | concentration not given |  | GSH/GSSG ratio | decreased |
| COc1ccc(NC(C)(C)C(=O)Nc2ccc(F)c(Cl)c2)cc1S(=O)(=O)N1CCOCC1 | cell growth or viability |  |  | EC50 | > 25 µM |
| CCC[C@H]1CC[C@H](c2ccc(NC(=S)NC[C@@H]3[C@@H](O)[C@@H](O)[C@H]4[C@H](O)CCCN43)cc2)CC1 | fluorescent lectin imaging | 10 µM, 48 h |  | galectin-1 binding to cell surface | decreased |
| O=C1CCNC(=O)[C@H](Cc2c[nH]cn2)NC(=O)[C@@H]2CCCN2C(=O)[C@H](Cc2c[nH]cn2)NC(=O)CCN1 | MTT | 10 µg/mL, 6 h |  | viability | 13.9% |
| Cc1c(C(=O)NNC(=S)Nc2ccc(Cl)cc2)nnn1Cc1nc2ccccc2[nH]1 | PI flow cytometry | concentration not given |  | cells in S phase | 49.1% |
| Cc1ccc(NCC(=O)N2CCCCC2)cc1S(=O)(=O)N1CCOCC1 | cell growth or viability |  |  | EC50 | > 25 µM |
| O=C(/C=C/c1ccc(O)cc1)OCCCC[P+](c1ccccc1)(c1ccccc1)c1ccccc1 | SRB | 48 h | relative to: IC50 L02 over IC50 HepG2 | therapeutic index | 5.26 |
| CSC(=NN=C(C)c1ccc(S(=O)(=O)N2CCC(C)CC2)cc1)N(C)C | flow cytometry | 3.31 µM, 72 h |  | cells in %G2/M | 31.3% |
| Cc1ccc(NC(C)(C)C(=O)Nc2ccc(F)c(Cl)c2)cc1S(=O)(=O)N1CC2CC1CO2 (stereo not shown) | cell growth or viability |  |  | EC50 | > 25 µM |
| CCOc1cccc2c1[O][Pt-2]1([Cl])[N+](=C2)CC[NH+]1c1ccccc1 (stereo not shown) | flow cytometry PI | concentration not given, 24 h |  | sub-G1 cells | 60 to 65% |
